Measured values gathered from unrelated publications.
Parts stem from different laboratories: compare values within a part only.
Sequence of UniProt P27037 (whole entry, looked up): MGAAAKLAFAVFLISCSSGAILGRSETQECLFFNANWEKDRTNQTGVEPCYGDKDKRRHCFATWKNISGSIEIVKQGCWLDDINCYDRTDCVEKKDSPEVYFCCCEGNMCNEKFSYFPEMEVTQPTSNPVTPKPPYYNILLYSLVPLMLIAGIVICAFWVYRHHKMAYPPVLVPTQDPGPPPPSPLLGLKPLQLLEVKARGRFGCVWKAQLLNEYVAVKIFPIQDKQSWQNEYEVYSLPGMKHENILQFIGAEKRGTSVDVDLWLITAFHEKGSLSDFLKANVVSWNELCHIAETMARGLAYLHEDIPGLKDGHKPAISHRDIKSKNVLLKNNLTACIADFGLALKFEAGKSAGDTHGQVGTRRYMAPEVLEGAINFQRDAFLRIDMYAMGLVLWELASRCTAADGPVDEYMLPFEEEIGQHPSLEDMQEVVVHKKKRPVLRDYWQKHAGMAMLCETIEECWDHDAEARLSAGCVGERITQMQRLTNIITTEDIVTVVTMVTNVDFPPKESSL
Sequence of UniProt P07949 (whole entry, looked up): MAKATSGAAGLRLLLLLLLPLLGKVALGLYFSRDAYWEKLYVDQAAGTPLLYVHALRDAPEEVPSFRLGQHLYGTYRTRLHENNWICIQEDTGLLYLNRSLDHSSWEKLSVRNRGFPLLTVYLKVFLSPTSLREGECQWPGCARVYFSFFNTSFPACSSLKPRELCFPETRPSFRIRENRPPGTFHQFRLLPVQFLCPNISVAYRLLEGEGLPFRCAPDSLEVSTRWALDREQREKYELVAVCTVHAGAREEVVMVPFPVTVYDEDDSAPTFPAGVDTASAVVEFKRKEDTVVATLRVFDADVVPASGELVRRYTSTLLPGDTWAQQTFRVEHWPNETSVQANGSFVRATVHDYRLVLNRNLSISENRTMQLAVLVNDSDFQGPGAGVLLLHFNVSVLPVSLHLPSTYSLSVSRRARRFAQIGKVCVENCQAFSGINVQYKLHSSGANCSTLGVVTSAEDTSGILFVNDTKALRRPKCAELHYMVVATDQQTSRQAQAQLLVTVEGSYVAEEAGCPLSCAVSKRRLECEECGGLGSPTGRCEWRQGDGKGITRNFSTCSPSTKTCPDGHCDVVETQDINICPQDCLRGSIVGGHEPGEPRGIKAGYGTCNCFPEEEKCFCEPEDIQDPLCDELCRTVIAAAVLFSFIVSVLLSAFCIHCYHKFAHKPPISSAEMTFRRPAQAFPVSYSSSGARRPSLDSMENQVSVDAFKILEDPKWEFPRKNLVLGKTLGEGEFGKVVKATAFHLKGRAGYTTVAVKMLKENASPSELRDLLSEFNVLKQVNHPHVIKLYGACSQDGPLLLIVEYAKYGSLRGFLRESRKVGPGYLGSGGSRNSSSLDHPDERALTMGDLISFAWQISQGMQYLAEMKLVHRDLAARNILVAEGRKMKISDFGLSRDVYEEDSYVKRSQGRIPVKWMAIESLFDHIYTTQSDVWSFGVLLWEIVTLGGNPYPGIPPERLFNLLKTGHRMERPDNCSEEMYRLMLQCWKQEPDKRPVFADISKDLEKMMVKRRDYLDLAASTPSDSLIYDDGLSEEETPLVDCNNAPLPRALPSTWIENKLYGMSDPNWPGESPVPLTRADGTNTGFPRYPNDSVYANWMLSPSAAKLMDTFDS
Sequence of UniProt P53671 (whole entry, looked up): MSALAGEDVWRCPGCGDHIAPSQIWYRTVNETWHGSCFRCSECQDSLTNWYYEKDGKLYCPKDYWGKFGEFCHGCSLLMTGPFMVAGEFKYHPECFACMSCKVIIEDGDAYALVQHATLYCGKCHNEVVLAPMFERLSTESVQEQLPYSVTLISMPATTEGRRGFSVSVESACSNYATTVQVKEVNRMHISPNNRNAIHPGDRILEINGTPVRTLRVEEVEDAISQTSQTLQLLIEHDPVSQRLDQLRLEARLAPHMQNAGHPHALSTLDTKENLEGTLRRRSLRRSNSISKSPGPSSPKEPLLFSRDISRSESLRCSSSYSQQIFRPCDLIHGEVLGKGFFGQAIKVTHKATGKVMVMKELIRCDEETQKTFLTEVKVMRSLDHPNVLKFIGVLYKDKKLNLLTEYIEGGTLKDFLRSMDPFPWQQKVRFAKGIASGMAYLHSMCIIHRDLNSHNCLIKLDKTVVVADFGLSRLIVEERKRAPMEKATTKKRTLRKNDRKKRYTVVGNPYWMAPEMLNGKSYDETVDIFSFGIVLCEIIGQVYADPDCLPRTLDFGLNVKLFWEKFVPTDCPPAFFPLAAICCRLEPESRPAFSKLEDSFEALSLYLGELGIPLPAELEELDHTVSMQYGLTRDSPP
Sequence of UniProt Q15349 (whole entry, looked up): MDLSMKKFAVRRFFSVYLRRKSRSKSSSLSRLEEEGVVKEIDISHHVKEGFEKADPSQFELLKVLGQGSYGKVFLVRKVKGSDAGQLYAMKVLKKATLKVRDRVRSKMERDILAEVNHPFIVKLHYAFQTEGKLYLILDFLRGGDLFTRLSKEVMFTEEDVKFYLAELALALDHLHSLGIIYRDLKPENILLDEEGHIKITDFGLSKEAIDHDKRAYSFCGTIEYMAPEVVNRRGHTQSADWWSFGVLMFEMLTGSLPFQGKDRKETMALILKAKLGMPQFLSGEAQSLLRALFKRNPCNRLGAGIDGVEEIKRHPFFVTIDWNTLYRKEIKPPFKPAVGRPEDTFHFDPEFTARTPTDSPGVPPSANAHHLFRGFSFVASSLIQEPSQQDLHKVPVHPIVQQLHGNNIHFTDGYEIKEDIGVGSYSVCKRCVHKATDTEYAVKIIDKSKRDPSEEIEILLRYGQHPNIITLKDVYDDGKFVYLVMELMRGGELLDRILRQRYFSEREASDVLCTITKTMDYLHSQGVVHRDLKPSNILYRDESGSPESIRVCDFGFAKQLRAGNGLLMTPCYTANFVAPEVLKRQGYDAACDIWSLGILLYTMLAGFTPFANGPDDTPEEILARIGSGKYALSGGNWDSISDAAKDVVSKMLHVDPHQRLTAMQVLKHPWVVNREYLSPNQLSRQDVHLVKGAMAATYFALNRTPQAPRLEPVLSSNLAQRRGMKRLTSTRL
Sequence of UniProt P11802 (whole entry, looked up): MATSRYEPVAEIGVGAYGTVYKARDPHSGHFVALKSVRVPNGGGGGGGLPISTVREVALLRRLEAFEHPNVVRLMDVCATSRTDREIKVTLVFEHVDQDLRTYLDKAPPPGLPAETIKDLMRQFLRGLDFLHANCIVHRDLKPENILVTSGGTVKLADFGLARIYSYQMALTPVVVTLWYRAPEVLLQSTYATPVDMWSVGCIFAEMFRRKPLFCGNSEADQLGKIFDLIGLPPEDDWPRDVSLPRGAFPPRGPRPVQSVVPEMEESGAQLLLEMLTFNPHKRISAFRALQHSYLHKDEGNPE

Block 1
Cell line: HaCaT
Tested at: 100 µM
Time: 36 h
Quantity: viability
COc1ccc(CN2CCN(C(c3ccc(F)cc3)c3ccc(F)cc3)CC2)c(OC)c1OC: 14.1%
COc1ncnc(NS(=O)(=O)c2ccc(N)cc2)c1OC: 89%
NC(=O)N/N=C/c1ccc([N+](=O)[O-])o1: 31.3%
NCCNc1ccc(NCCN)c2c1C(=O)c1ccncc1C2=O: 4.87%
CCN[C@H]1CN(CCCOC)S(=O)(=O)c2sc(S(N)(=O)=O)cc21: 75.2%
CCN(CC)CCOCCOC(=O)C(CC)(CC)c1ccccc1: 34.2%
COc1cc(CCC(=O)O)ccc1O: 90.4%

Block 2
Target: Serine/threonine-protein kinase Nek9 (NEK9, Homo sapiens, UniProt Q8TD19)
Effect on: enzyme activity
Mode: inhibitor
Tested at: 0.5 µM
Relative to: control
Quantity: remaining activity
Construct (Q8TD19 1-979): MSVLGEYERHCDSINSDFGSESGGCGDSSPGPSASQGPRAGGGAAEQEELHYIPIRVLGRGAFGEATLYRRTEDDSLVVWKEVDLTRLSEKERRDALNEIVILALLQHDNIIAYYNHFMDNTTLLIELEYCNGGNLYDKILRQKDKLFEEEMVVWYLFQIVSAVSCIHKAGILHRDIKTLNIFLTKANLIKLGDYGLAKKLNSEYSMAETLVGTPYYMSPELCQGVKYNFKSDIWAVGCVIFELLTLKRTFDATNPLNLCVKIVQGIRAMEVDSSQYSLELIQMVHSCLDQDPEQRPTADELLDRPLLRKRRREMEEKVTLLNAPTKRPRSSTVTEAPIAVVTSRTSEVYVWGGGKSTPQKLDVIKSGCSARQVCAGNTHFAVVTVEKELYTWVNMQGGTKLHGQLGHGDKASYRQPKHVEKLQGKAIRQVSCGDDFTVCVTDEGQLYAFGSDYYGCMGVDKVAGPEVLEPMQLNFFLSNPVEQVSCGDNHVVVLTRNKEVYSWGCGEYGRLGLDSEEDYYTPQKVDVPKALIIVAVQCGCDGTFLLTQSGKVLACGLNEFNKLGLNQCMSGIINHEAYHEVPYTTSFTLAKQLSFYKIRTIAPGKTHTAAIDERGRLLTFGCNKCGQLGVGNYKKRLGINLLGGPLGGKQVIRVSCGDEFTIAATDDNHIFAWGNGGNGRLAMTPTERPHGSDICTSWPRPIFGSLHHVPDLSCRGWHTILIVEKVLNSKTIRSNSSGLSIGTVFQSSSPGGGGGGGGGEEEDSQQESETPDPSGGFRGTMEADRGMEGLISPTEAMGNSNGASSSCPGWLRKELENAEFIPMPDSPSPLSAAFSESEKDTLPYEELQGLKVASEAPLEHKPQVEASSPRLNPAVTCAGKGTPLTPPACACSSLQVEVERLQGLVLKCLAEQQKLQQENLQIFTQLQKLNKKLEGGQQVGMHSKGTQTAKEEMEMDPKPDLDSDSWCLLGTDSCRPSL
COc1ccc(COc2ccc(Cc3cnc(N)nc3N)cc2OC)cc1: 93.3%
c1ccc2c(-c3ccncc3)c[nH]c2c1: 101%
CN1CCN(c2ccc3nc(-c4c(N)c5c(F)cccc5[nH]c4=O)[nH]c3c2)CC1: 58.9%
O=C1NC(=O)c2c1c1c3ccccc3[nH]c1n1cncc21: 77.4%
Cc1cc(Nc2cc(N3CCN(C)CC3)nc(Sc3ccc(NC(=O)C4CC4)cc3)n2)[nH]n1: 102%
NC(=O)c1ccc(-c2nc(-c3ccc4c(c3)OCCO4)c(-c3ccccn3)[nH]2)cc1: 94.7%
O=c1c(-c2ccc(F)cc2)c(-c2ccncc2)[nH]n1-c1ccc(Cl)cc1: 107%
O=Nc1c(-c2c(O)[nH]c3cc(Br)ccc23)[nH]c2ccccc12: 96.3%
O=C1Nc2ccc(Br)cc2/C1=C/c1cc2c([nH]1)CCCC2: 85.6%
Nc1nc(Nc2ccc(S(N)(=O)=O)cc2)nn1C(=S)Nc1c(F)cccc1F: 39.1%
O=Nc1c(-c2c(O)[nH]c3ccccc23)[nH]c2ccccc12: 95.4%
COc1ccc2c(c1)c(C1=C(c3c[nH]c4ccccc34)C(=O)NC1=O)cn2CCCN(C)C: 90.3%
NC(=O)c1cccc(-c2cc(Nc3ccc(OC(F)(F)F)cc3)ncn2)c1: 93.8%
CCCCc1c(-c2ccc(O)cc2)[nH]c2nccnc12: 105%
O=C1NC(=O)/C(=C/c2ccc3c(c2)OC(F)(F)O3)S1: 109%
N#C/C(=C(/N)SC1C=CC=CC1)c1cccc(C(O)c2ccncc2)c1 (stereo not drawn): 99%

Block 3
Compound: O=C(O)[C@H]1[C@H](Cn2nnc3ccccc3c2=O)CC[C@@H]1C(=O)c1ccc(OCCC2CCOCC2)cc1
Effect on: cell-free assay
Method: competition with immobilised ligand
Tested at: 1 µM
Quantity: remaining binding
Tyrosine-protein kinase ABL1, phosphorylated (ABL1, Homo sapiens, UniProt P00519, Q252H): 83%
FLT3 (Homo sapiens, UniProt P36888, D835H): 72%
LIM domain kinase 2 (LIMK2, Homo sapiens, UniProt P53671): 90%
CDK4 (Homo sapiens, UniProt P11802): 96%
RET (Homo sapiens, UniProt P07949): 82%
Ribosomal protein S6 kinase alpha-2, C-terminal kinase domain (RPS6KA2, Homo sapiens, UniProt Q15349): 78%
ACVR2A (Homo sapiens, UniProt P27037): 87%

Block 4
Species: human
Matrix: microsomes or S9
Tested at: 2 µM
Time: 0.5 h
Quantity: remaining compound
CC(C)C(C(=O)Nc1cccc2[nH]ccc12)N1Cc2ccccc2C1=O (stereo not drawn): 49.3%
O=C1NCCN1C(=O)N1CCCC(Oc2cccnn2)C1 (stereo not drawn): 87.3%
CCCc1cc(-n2ccnc2C)n2nc3nc(C)cc(C)c3c2n1: 82.2%
Cc1nc(C2=C(N)N(C3CS(=O)(=O)CC3O)CC2=O)sc1C (stereo not drawn): > 99%
COC(=O)C1(C)Cc2ccc(Cl)cc2C(=O)O1 (stereo not drawn): 0%
Cc1cc(=O)c(OCC(=O)Nc2ccc3[nH]c(CC(C)C)nc3c2)c[nH]1: 56.9%
COc1ccc(C(CC(N)=O)c2c(Cc3ccc4c(c3)CCO4)[nH][nH]c2=O)cc1OC (stereo not drawn): 33%
NC(=O)[C@@H]1C[C@@H](F)CN1Cc1cc2c(cc1Br)OCO2: > 100%
CCCN1CCN(C(=O)C2=C(C)C(=O)OC23CCN(S(=O)(=O)CC)CC3)CC1: > 100%

For quick reference, copied from above (block 2):
NC(=O)c1ccc(-c2nc(-c3ccc4c(c3)OCCO4)c(-c3ccccn3)[nH]2)cc1: 94.7%
O=c1c(-c2ccc(F)cc2)c(-c2ccncc2)[nH]n1-c1ccc(Cl)cc1: 107%
O=Nc1c(-c2c(O)[nH]c3cc(Br)ccc23)[nH]c2ccccc12: 96.3%
O=C1Nc2ccc(Br)cc2/C1=C/c1cc2c([nH]1)CCCC2: 85.6%
Nc1nc(Nc2ccc(S(N)(=O)=O)cc2)nn1C(=S)Nc1c(F)cccc1F: 39.1%
O=Nc1c(-c2c(O)[nH]c3ccccc23)[nH]c2ccccc12: 95.4%
